{"data": "Published values from different studies", "note": "Each numbered part is a random draw from the data of one study; scales do not carry over between parts. Positions count from the first letter of the parent shown."}
{"data": "Series 1", "target": "Histone acetyltransferase KAT6A, winged helix 2, GST fusion (KAT6A, Homo sapiens, UniProt Q92794, residues 85-181)", "method": "protein binding microarray", "form": "double-stranded DNA, one strand shown", "matrix": "in vitro", "tested at": "not given", "notes": "8-mer, flanks averaged, mean of 2 arrays, mostly near background", "baseline": "not given", "reading": "higher = stronger binding", "Construct (chain)": "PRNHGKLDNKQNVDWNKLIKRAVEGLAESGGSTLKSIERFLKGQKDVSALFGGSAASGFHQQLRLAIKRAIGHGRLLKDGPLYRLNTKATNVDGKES"}
{"Oligonucleotide": "CGTTCACA", "E-score": -0.0411}
{"Oligonucleotide": "CAGGCGCC", "E-score": 0.167}
{"Oligonucleotide": "CAGTTCCC", "E-score": 0.163}
{"Oligonucleotide": "ACGGACCA", "E-score": 0.145}
{"Oligonucleotide": "CCTTGTTC", "E-score": -0.129}
{"Oligonucleotide": "GGTTTAAC", "E-score": 0.0501}
{"Oligonucleotide": "CTGGGAAA", "E-score": 0.09}
{"Oligonucleotide": "TCCATAGA", "E-score": -0.0562}
{"Oligonucleotide": "AGTATTAG", "E-score": 0.133}
{"Oligonucleotide": "GAGGCGGA", "E-score": 0.168}
{"Oligonucleotide": "AGAGCGCC", "E-score": 0.159}
{"Oligonucleotide": "CAGACAAA", "E-score": 0.121}
{"Oligonucleotide": "CCAAAAAC", "E-score": 0.0455}
{"Oligonucleotide": "CATACCAC", "E-score": -0.0632}
{"Oligonucleotide": "AACGCCCG", "E-score": 0.138}
{"Oligonucleotide": "CGTTGTTA", "E-score": -0.0151}
{"Oligonucleotide": "ACGGGGAA", "E-score": -0.0914}
{"Oligonucleotide": "CCATTGCC", "E-score": 0.0194}
{"Oligonucleotide": "GGTATCCA", "E-score": 0.144}
{"Oligonucleotide": "CTATTTAC", "E-score": -0.149}
{"Oligonucleotide": "ACAACGCC", "E-score": 0.0135}
{"Oligonucleotide": "ACCGTTAT", "E-score": 0.00464}
{"Oligonucleotide": "ATGAGGGA", "E-score": -0.167}
{"Oligonucleotide": "CTCGCTGA", "E-score": 0.00202}
{"Oligonucleotide": "CATTCCAA", "E-score": 0.0709}
{"data": "Series 2", "target": "Hepatocyte nuclear factor 3-alpha (Foxa1, Mus musculus, UniProt P35582, residues 1-468, full length assumed)", "method": "EMSA with sequencing", "form": "double-stranded DNA, one strand shown", "matrix": "in vitro", "tested at": "10 and 20 nM", "notes": "whole designed probe, mean of two concentrations, ends assumed", "baseline": "negative control set to 0", "reading": "higher = stronger binding", "constant ends, left off below": "GTGAGCGGTGCCCATTGATGGGGAAC … TTTCACTGGGATCGTGGGGAC", "Target sequence (chain)": "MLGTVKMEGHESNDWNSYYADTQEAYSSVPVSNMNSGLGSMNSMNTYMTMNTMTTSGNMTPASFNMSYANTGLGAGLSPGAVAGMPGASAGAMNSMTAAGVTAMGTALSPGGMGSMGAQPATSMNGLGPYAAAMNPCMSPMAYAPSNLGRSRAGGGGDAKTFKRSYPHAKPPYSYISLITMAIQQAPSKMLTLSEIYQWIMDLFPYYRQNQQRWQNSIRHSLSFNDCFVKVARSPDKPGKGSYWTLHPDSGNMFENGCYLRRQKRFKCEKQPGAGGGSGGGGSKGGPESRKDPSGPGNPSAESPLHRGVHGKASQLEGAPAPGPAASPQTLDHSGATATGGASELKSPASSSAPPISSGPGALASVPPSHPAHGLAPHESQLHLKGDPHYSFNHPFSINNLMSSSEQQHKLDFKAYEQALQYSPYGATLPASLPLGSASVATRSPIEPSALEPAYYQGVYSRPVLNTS"}
{"Oligonucleotide": "CAGACAACTCTATTTGAATATGAAAATTTCAACTTTAAACCTCTGAACTCTGCTGGGTCTGCAGAGGCGTTTTAATGTCAACCTCAGGAAATGTACACATGAAGCAGAATTTACAACTCATCACTGTCACAGTTAGATTAGAGTGTGAGTTAAAGAGTAATACATTAACCAGGGTTAGTGCATGGAGATTGTT", "normalised bound fraction [ratio]": 0.105}
{"Oligonucleotide": "GGCAGCACTTAGCAGCAGCTACAAATAACAATGGAAAGGTTGGAGAACCCATCACATGCCAGACACAGGGCTAAGTGTGCAGATACCGATTTGTGTTTACTTTTGCTCTGTAGAAGAATCAGGAGGATGAGGTCTATTTGGTTTTTACTTTTCCCATCGAGTTATCTCCCACTCTGAGACTGAAGCTGGACTT", "normalised bound fraction [ratio]": 0.436}
{"Oligonucleotide": "ACTCAAATTCTATTTTGACTGTTGAGAATCAAATACATCTTTAATGGGTTAATGTTGGCAATAATCGAAAGTGTTTTAGCTAACATTCATGTGTAATCTAGGACAAACATTGGCAAATGTGATAATTACTACATAAGTTGTAAATTCATATGGAAAATGCATTTACTAATTCAGTCAGGGATAGGCTGTGATG", "normalised bound fraction [ratio]": 0.0938}
{"Oligonucleotide": "TAAACAAAGCTGGTCGCCCAATGAAGAGGCGGCGGGGGCGGGCGCTGGGCCGGGGAGGCCGGGGGCGGAGCCGGGGGCGGGGCGACCGGGCGGTGTTTACAGACCGGCTCATCGCGCTTCCGGTTGACGTTGCTGACAGCTAGTGAGGCTTTAGCCCGCTTCGAGCGCCTCGGCGCGGTAAGGCGCGATCATA", "normalised bound fraction [ratio]": 0.462}
{"Oligonucleotide": "ATCTTCCCCCTCTTCCTTGCCCCACCAGCTCACCTTCCCGGGTATCTGCAAATAAGTATTTATTTTCAAGCCGGCATTCGTTAACCCTCTTCTGGCGCAAACTGCTGTTTACTTTGGATCTAACATGGTCCTTTGGCGACGCCAGGCTCCGGGAGAGCAAAGCACCGTGTCAGGGCCATGATCCGGGGTGGCC", "normalised bound fraction [ratio]": 0.392}
{"data": "Series 3", "target": "ABI1, truncated, D143A, DHFR fusion (Arabidopsis thaliana)", "method": "DHFR PCA, deep sequencing", "matrix": "yeast", "notes": "methotrexate growth selection, single substitutions", "added": "(+)-ABA 17 µM", "baseline": "wild-type fitted maximum", "reading": "higher = stronger binding", "starting sequence": "PYL1, truncated, DHFR fusion (Arabidopsis thaliana); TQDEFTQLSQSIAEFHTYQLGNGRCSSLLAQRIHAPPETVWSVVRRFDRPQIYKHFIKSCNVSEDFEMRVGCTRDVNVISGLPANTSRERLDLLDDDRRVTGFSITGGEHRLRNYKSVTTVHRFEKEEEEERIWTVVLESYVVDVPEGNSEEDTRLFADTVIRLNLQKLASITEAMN; partner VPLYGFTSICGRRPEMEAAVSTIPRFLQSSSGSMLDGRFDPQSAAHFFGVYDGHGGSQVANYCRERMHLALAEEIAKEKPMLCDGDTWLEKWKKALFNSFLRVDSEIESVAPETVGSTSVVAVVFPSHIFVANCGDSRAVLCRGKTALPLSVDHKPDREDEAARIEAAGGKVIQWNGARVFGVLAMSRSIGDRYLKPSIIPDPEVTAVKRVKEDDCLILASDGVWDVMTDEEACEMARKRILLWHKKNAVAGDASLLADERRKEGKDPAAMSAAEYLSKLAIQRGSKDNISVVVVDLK"}
{"Change": "L28G", "relative binding score": "6.11%"}
{"Change": "E151D", "relative binding score": "78%"}
{"Change": "E151Y", "relative binding score": "69.9%"}
{"Change": "T101Q", "relative binding score": "-12.5%"}
{"Change": "D144R", "relative binding score": "3.82%"}
{"Change": "G81M", "relative binding score": "-4.24%"}
{"Change": "R88A", "relative binding score": "66.1%"}
{"Change": "S150L", "relative binding score": "29.4%"}
{"Change": "V62H", "relative binding score": "18.3%"}
{"Change": "L156Y", "relative binding score": "74.7%"}
{"Change": "D75N", "relative binding score": "83.8%"}
{"Change": "I12S", "relative binding score": "6.39%"}
{"Change": "V143S", "relative binding score": "15.9%"}
{"Change": "I133C", "relative binding score": "97.4%"}
{"Change": "R98I", "relative binding score": "64.5%"}
{"data": "Series 4", "target": "CCND2, cyclin fold, Cln2 fusion (human)", "method": "yeast growth competition, sequencing", "matrix": "yeast", "notes": "weak parent motif", "baseline": "not given", "reading": "higher = stronger binding", "starting sequence": "BRCA2 docking peptide (human); PSIKRNLLNEFDR; partner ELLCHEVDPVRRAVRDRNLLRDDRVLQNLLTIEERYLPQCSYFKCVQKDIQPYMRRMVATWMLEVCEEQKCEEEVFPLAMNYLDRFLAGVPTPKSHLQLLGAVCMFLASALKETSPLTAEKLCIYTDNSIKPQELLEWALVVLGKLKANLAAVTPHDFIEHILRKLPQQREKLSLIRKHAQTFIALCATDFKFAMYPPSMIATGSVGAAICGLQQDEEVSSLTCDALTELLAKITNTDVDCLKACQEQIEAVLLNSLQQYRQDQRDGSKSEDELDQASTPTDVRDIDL"}
{"Change": "L8W", "normalised enrichment score": 0.00229}
{"Change": "D12A", "normalised enrichment score": 0.645}
{"Change": "D12V", "normalised enrichment score": 0.214}
{"Change": "K4C", "normalised enrichment score": 0.694}
{"Change": "N6D", "normalised enrichment score": 0.068}
{"Change": "L8P", "normalised enrichment score": -0.09}
{"Change": "R5G", "normalised enrichment score": -0.154}
{"Change": "F11K", "normalised enrichment score": -0.24}
{"Change": "L8R", "normalised enrichment score": -0.224}
{"Change": "E10I", "normalised enrichment score": -0.104}
{"Change": "N6L", "normalised enrichment score": -0.0547}
{"Change": "N6M", "normalised enrichment score": -0.146}
{"Change": "L7R", "normalised enrichment score": 0.608}
{"Change": "S2Q", "normalised enrichment score": 0.283}
{"Change": "D12L", "normalised enrichment score": 0.0611}
{"Change": "D12H", "normalised enrichment score": -0.114}
{"Change": "I3P", "normalised enrichment score": 0.415}
{"Change": "I3S", "normalised enrichment score": 0.0966}
{"Change": "S2N", "normalised enrichment score": 0.102}
{"Change": "N9F", "normalised enrichment score": -0.0513}
{"Change": "N6F", "normalised enrichment score": 0.318}
{"Change": "E10G", "normalised enrichment score": 0.109}
{"Change": "R5F", "normalised enrichment score": -0.514}
{"Change": "L8Q", "normalised enrichment score": -0.0761}
{"Change": "R13A", "normalised enrichment score": 0.395}
{"note": "For quick reference, copied from above (series 1):"}
{"Oligonucleotide": "AACGCCCG", "E-score": 0.138}
{"Oligonucleotide": "CAGGCGCC", "E-score": 0.167}
{"Oligonucleotide": "ACGGGGAA", "E-score": -0.0914}
{"Oligonucleotide": "GGTTTAAC", "E-score": 0.0501}
{"Oligonucleotide": "CTATTTAC", "E-score": -0.149}
{"Oligonucleotide": "CGTTGTTA", "E-score": -0.0151}
{"Oligonucleotide": "CGTTCACA", "E-score": -0.0411}
